Assay results gathered from unrelated publications.
Numbered parts are unrelated; each lists some results of a single study. Substitutions count along the parent as printed.

Set 1
Target: ABI1, truncated, D143A, DHFR fusion (Arabidopsis thaliana)
Technique: DHFR PCA, deep sequencing
Sample: yeast
Notes: methotrexate growth selection, single substitutions
With: (+)-ABA 17 µM
Relative to: wild-type fitted maximum
Reading: higher = stronger binding
Starting sequence: PYL1, truncated, DHFR fusion (Arabidopsis thaliana); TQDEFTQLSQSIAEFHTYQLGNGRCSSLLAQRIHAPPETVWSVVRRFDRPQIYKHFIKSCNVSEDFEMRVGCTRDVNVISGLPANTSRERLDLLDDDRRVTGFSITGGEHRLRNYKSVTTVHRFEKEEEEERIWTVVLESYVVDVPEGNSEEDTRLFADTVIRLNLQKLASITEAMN
Under “relative binding score”, `L93R` is recorded as 80%.
`D97S` — result for “relative binding score”: 90.2%.
For `Q51L`, “relative binding score” read 11.6%.
`A158Q`: “relative binding score” 7.43%.
For `V62S`, “relative binding score” read 17.3%.
For `L138E`, “relative binding score” read -2.41%.
Under “relative binding score”, `E151Q` is recorded as 76.1%.
For `L169S`, “relative binding score” read -8.17%.
`I79D` — result for “relative binding score”: 8.54%.
`V121C` — result for “relative binding score”: 49.6%.
Under “relative binding score”, `I133W` is recorded as 73.4%.
`M176G` — result for “relative binding score”: 84.1%.
`V118W`: “relative binding score” -12.3%.
`T119E`: “relative binding score” 4.76%.

Set 2
Target: CCNF, cyclin fold, Cln2 fusion (human)
Technique: yeast growth competition, sequencing
Sample: yeast
Notes: strong parent motif
Relative to: not given
Reading: higher = stronger binding
Starting sequence: ORC1 docking peptide (human); PRARKRLELGNLG
Under “normalised enrichment score”, `G10N` is recorded as 2.41.
Under “normalised enrichment score”, `G13T` is recorded as 2.77.
Under “normalised enrichment score”, `R4N` is recorded as 1.45.
Under “normalised enrichment score”, `R2A` is recorded as 3.3.
`A3M`: “normalised enrichment score” 2.93.
`L7N` — result for “normalised enrichment score”: 1.36.
Under “normalised enrichment score”, `G13M` is recorded as 5.57.
Under “normalised enrichment score”, `G13V` is recorded as 3.65.
`R4C`: “normalised enrichment score” 1.97.
`R4K`: “normalised enrichment score” 2.
For `N11G`, “normalised enrichment score” read 4.53.
`P1W` — result for “normalised enrichment score”: 4.93.
`L7D`: “normalised enrichment score” 1.15.
`N11F` — result for “normalised enrichment score”: 4.01.
`G13D` — result for “normalised enrichment score”: 5.42.
For `N11R`, “normalised enrichment score” read 3.19.
`R4A` — result for “normalised enrichment score”: 1.63.
Under “normalised enrichment score”, `N11E` is recorded as 4.15.
Under “normalised enrichment score”, `L12Q` is recorded as 2.44.
`L9W`: “normalised enrichment score” 3.65.
For `L12W`, “normalised enrichment score” read 5.04.
For `K5Y`, “normalised enrichment score” read 1.12.
`L12Y`: “normalised enrichment score” 4.15.

Set 3
Target: CEBPE, bZIP domain (human)
Technique: DHFR protein complementation
Sample: yeast
Notes: single substitutions, most at no-binding floor
Relative to: wild-type JUN-FOS pair
Reading: higher = stronger binding
Starting sequence: JUN, bZIP domain (human); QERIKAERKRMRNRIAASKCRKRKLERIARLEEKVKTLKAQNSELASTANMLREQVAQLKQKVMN; partner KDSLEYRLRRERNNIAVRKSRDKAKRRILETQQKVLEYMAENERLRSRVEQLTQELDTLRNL
With `E32G` the binding fitness was -1.39 natural log.
For `L31F`, the binding fitness was -1.49 natural log.
`V35H` gave a binding fitness of -1.44 natural log.
For `N42I`, the binding fitness was -1.42 natural log.
`T48N` has a binding fitness of -1.42 natural log.
The binding fitness of `A46N` is reported as -1.08 natural log.
With `V35A` the binding fitness was -1.06 natural log.
`R53G` has a binding fitness of -1.09 natural log.
`E54D` gave a binding fitness of -1.17 natural log.
With `E32S` the binding fitness was -1.29 natural log.
With `I28Q` the binding fitness was -1.16 natural log.
With `A40Y` the binding fitness was -1.3 natural log.
`L31E` gave a binding fitness of -1.3 natural log.
`K39C` has a binding fitness of -1.34 natural log.
`T48P` gave a binding fitness of -1.5 natural log.
With `V35Y` the binding fitness was -1.31 natural log.
The binding fitness of `A40L` is reported as -1.2 natural log.
With `A46D` the binding fitness was -1.33 natural log.
`K36V` gave a binding fitness of -1.23 natural log.
For `Q58P`, the binding fitness was -1.44 natural log.
`A29I` has a binding fitness of -1.16 natural log.
With `T37Q` the binding fitness was -0.872 natural log.
The binding fitness of `T48H` is reported as -1.14 natural log.
With `N42L` the binding fitness was -1.46 natural log.
`T48E` gave a binding fitness of -1.28 natural log.

Set 4
Target: RNA binding protein fox-1 homolog 2, RRM domain, GST-SBP tag (RBFOX2, Homo sapiens, UniProt O43251-10, residues 100-194)
Technique: RNA Bind-n-Seq
Molecule type: RNA
Sample: in vitro
Concentration: 365 nM
Notes: natural RNA segment, single round, ends assumed
Relative to: no-protein control
Reading: higher = stronger binding
Construct (chain): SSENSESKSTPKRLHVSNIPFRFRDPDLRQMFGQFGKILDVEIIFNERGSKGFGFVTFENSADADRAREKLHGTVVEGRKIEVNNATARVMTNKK
`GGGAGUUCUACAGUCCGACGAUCAAAGUGAACUUAAAAGGACAUGCCCACUGAAUUCAGGUCCUUUGAGUAAAAAAAAAAUCUUCUGCUGCACAUUUUGUUUAAGUGUUACUGUUUCUGCCUGUUAAUGCUGGUGGAAUUCUCGGGUGCCAA` — result for “RBNS enrichment (R)”: 1.14.
`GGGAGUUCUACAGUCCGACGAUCGUUUUUUGAGAGAGACUGAGAGAACCAUAAUCCUUGCCUGCUGAACCCAGCCUGGGCCUGGAUGCUCUGUGAAUACAUUAUCUUGCGAUGUUGGGUUAUUCCAGCCAAAGUGGAAUUCUCGGGUGCCAA` — result for “RBNS enrichment (R)”: 0.388.
`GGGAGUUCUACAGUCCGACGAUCAAGACCAUGUGUCCCCCAAUACUUAGAUUUCACCGUACUUUCUGAUGGUGUUUUUAAAAGGCCAAGUGUUGCAAAAGUUUGCACGUGCAACCGUAUAUUAAUCGCCAGUGUGGAAUUCUCGGGUGCCAA` — result for “RBNS enrichment (R)”: 1.26.
For `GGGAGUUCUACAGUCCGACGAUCUCACGGAAAGUUUCUUACUCAUCCCUGUGACUUUGGCUUUAUUUUACAAUAAAACACUGAAAAUGUCCACUUUGUUAGUUGUGAACAUGAGCCCAGGCCUAAGGUGCUGGUGGAAUUCUCGGGUGCCAA`, “RBNS enrichment (R)” read 0.249.
For `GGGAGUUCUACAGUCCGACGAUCUUCCUUAAUAAACAGAUUCAUUUAGUUAUUUCAUAUAGGCAUCAAUAUGCAUUUAGCUUUAGUUUACUGAACAGUAAACAUGCUUUUAUUUCUUGCUAUGAGAGUAUUUUUGGAAUUCUCGGGUGCCAA`, “RBNS enrichment (R)” read 2.2.
For `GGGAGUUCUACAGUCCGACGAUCAGAGACAGGGUUUCACCAUGUUAGCCGGGAUGGUCUUGAUCUCCUGACCUCAUGAUCCACCCACCUCAGCCUCCCAAAGUGUUGGGAUUACAGGCGUGAGCCACUGCGCCUGGAAUUCUCGGGUGCCAA`, “RBNS enrichment (R)” read 0.276.
For `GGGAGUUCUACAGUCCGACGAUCAAAAAAAUUGUCCCAGAUGCGUUAAGAAAUAAUAACACCCAGGGAUACUCACCCAUGCAUAGCUACCCAGGGUUAAUUGGUAGCUGGGAUAUCUUUUCGCCUCAGACAGCUGGAAUUCUCGGGUGCCAA`, “RBNS enrichment (R)” read 0.404.
Under “RBNS enrichment (R)”, `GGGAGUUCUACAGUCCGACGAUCAGGAGCUGUGCUCCUCAGAGGGCAGAAUCUACAUUAAGUGCCGCCCAAAGGAGAGUGCGUUGUCAUAGAAACCACAUAAAACUAUCCUUCCAGAGGCUUCACCACCUUGCUGGAAUUCUCGGGUGCCAA` is recorded as 0.296.
`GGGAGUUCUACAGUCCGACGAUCGCCUAAUAUUCAUCAGCCUUCAUUACUCUCUAGCAUAUUCACCUUGAUUCAACAGAUUCAAACUUCCUACAGCCUUCUACUGAUGUCUUACAAGCUCUUGCCUCUGUGCCUGGAAUUCUCGGGUGCCAA`: “RBNS enrichment (R)” 1.4.
`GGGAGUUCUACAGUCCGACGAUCGCUCUCUUCUAAGUAGAAUGUUCAAUGUAACUAAAACUAAAAUUGCAUGUCAAAGAGACCUAGGUUCUUUCUUUCUUUCUUUCUCUCUUUCUUUCAGUUUGCUUUUGGUUUGGAAUUCUCGGGUGCCAA`: “RBNS enrichment (R)” 1.97.
`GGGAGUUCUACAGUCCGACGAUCCCCCUCUGCUUCAGGAAGGCCCUAUAGGGCCCACCUUCCCGCCCUGCCCACCUGGCCUUUGCACUUCACCCUCACCAGCUACUGGCCACCAUUCAGUCUCCCCCUUUUCCUGGAAUUCUCGGGUGCCAA` — result for “RBNS enrichment (R)”: 0.976.
Under “RBNS enrichment (R)”, `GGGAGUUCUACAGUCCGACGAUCGCCCUCCAUCCACCUGCCUUAACUAAUUGGGGCUGGAGUUGGUCAUUUUUGUACACCCACAGUGGUACCUUUUACAGUCAGGUUUGGAUACUUUGCAGCUCAUCCAAAGAUGGAAUUCUCGGGUGCCAA` is recorded as 0.379.

Set 5
Target: Sal-like protein 4, full length isoform B (SALL4, Homo sapiens, UniProt Q9UJQ4-2, residues 1-616)
Technique: universal PBM
Molecule type: double-stranded DNA, one strand shown
Sample: in vitro
Concentration: not given
Notes: 8-mer, flanks averaged, mean of replicates
Reading: higher = stronger binding
Residues (chain): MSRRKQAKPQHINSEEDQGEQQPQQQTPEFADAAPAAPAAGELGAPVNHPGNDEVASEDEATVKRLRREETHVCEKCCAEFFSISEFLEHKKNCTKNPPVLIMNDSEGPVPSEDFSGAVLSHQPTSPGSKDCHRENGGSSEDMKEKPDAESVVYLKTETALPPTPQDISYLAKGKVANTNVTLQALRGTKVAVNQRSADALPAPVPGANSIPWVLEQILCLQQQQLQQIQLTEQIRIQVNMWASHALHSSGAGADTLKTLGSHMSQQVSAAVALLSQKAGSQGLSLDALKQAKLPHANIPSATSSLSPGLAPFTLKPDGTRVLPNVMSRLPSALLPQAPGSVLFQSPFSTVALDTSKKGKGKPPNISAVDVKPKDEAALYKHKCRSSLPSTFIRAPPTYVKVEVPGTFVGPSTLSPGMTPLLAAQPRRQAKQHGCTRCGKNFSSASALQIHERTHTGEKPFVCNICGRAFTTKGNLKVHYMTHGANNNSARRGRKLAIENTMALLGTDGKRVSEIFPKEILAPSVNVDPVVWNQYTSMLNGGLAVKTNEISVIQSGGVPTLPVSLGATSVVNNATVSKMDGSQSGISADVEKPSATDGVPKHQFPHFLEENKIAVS
With `CCTGATCG` the E-score was -0.22.
With `GATTGGAC` the E-score was -0.0275.
The E-score of `TAGTAGAA` is reported as 0.112.
The E-score of `ACGACCAC` is reported as -0.252.
The E-score of `GAGGCTGA` is reported as -0.131.
With `AAACTCCT` the E-score was -0.101.
The E-score of `ATGAATGA` is reported as 0.331.
`ATTGTGAG` has an E-score of 0.177.
For `GATTCACC`, the E-score was -0.222.
The E-score of `AGAACGAG` is reported as 0.02.
`AGCAACTC` has an E-score of -0.196.
For `TAAGTTAA`, the E-score was 0.272.
With `GATGAATC` the E-score was 0.0828.
With `CTGCCTGA` the E-score was 0.0211.
With `AAGTGACT` the E-score was 0.051.
With `ATCCTGTA` the E-score was 0.233.
For `GTATCTAA`, the E-score was 0.272.
For `CTACGAAA`, the E-score was 0.0751.
With `TCACTCCA` the E-score was -0.0614.
`CCCCGCCC` gave an E-score of -0.105.
For `ATGTTCTA`, the E-score was 0.123.
For `CAGAGTAC`, the E-score was -0.0786.
For `CCGTAGAG`, the E-score was -0.249.
The E-score of `CAACACTC` is reported as -0.103.
`AGCAAGAA` has an E-score of 0.124.

Repeated from above (set 3):
With `V35A` the binding fitness was -1.06 natural log.
`R53G` has a binding fitness of -1.09 natural log.
`E54D` gave a binding fitness of -1.17 natural log.
With `E32S` the binding fitness was -1.29 natural log.
With `I28Q` the binding fitness was -1.16 natural log.
With `A40Y` the binding fitness was -1.3 natural log.
`L31E` gave a binding fitness of -1.3 natural log.
